Assay results pooled from the literature.
Compare with care: the assays were run in different laboratories. Values joined by “and” are separate records of one study, mostly repeats; a detail may differ. ± marks the error that the study gave.

Compound = CC(=O)C1=C(O)C(=O)N(c2ccc(Cl)cc2F)[C@@H]1C1CCCCC1; tested on = THP-1; test = Hoechst/PI staining; setting = 10 µM, 5 h, with: 10 nM CCL2; quantity = viability; value = no effect
Compound = O=C1c2cccc(O)c2C(=O)c2c(O)cc(CO)cc21; tested on = HK-2 co-cultured with HepaRG; test = MTT; setting = 66.67 µM, 48 h; scale = baseline: untreated control; quantity = viability; value = 68.3 ± 8.04%
Compound = CC(C)C[C@H](NC(=O)C[C@H](O)[C@H](CC(C)C)NC(=O)[C@H](Cc1c[nH]cn1)NC(=O)CNC(=O)[C@@H](NC(=O)[C@H](C)NC(=O)[C@H](Cc1c[nH]c2ccccc12)NC(=O)[C@H](CCC(N)=O)NC(=O)[C@@H](Cc1ccccc1)NC(=O)COCCOCCNC(=O)CCC(C(=O)O)N1CCN(CC(=O)O)CCN(CC(=O)O)CC1)C(C)C)C(N)=O (stereo partly shown) [lutetium-177 labelled]; test system = female BALB/c nu/nu mice, liver; setting = intravenous, 50 pmol, 1 h; quantity = tissue uptake; value = 2.1 ± 0.5 %ID/g
Compound = O[C@H]1[C@H](OCc2cn(Cc3ccc(F)cc3)nn2)O[C@H]2[C@@H]1OC[C@H]2O; tested on = CHO-K1; test = cytotoxicity, CellTiter-Glo; setting = up to 30 µM, 72 h; quantity = viability; value = not toxic
Compound = CC(C)(c1ccc(O)cc1)c1ccc(O)cc1; tested on = HepG2 spheroids; test = annexin V/PI flow cytometry; setting = 10 µM, 96 h; quantity = viability; value = 53 ± 8%
Compound = CCCCCCCCN(CCC(=O)Nc1ccccc1)C(=O)[C@@H]1CCCN1; tested on = Lmna G609G/G609G mouse fibroblasts; test = MTT; setting = 2 µM, 72 h; scale = baseline: vehicle-treated wild type; quantity = viability; value = 70 ± 5%
Compound = Cc1cc(O)c2c(c1)C(=O)c1cc(O)cc(O)c1C2=O; tested on = HK-2 co-cultured with HepaRG; test = MTT; setting = 16.67 µM, 48 h; scale = baseline: untreated control; quantity = viability; value = 91.2 ± 7.62%
Compound = C=CCc1cc(OC)c(O)c(C(=O)NCCO)c1; tested on = THP-1; test = pyroptotic LDH release; setting = 2 µM, 40 min, with: LPS then nigericin; quantity = inhibition; value = 24.3%
Compound = COc1cc(CCc2cc(OC)c(O)c(OC)c2)ccc1O; tested on = 3T3-L1 pre-adipocytes; test = MTT; setting = 20 µM, 48 h; quantity = viability; value = 70.7 ± 7.93%
Compound = CCc1c(-c2ccccc2)c(-c2ccccc2)nn1-c1ccccc1-c1cccc(OCC(=O)O)c1; tested on = mouse bone marrow macrophages; test = CCK-8; setting = 100 µM, 4000 cells; scale = baseline: untreated; quantity = viability; value = 46.8% and 42.2% and 45.9% and 52.7% and 50.2% and 52.6%
Compound = CC1(C)S[C@@H]2[C@H](NC(=O)[C@H](N)c3ccccc3)C(=O)N2[C@H]1C(=O)OCOC(=O)[C@@H]1N2C(=O)C[C@H]2S(=O)(=O)C1(C)C; tested on = THP-1; test = pyroptotic LDH release; setting = 2 µM, 40 min, with: LPS then nigericin; quantity = inhibition; value = 9.16%
Compound = COc1c(O)c(C)cc2c1C(=O)c1c(cc(O)c(O)c1O)C2=O; tested on = HK-2 co-cultured with HepaRG; test = MTT; setting = 266.67 µM, 24 h; scale = baseline: untreated control; quantity = viability; value = 106 ± 18.3%
Compound = COc1ccc(Cn2cc(CO[C@@H]3O[C@H]4[C@H](OC[C@H]4O)[C@H]3O)nn2)cc1; tested on = CHO-K1; test = cytotoxicity, CellTiter-Glo; setting = up to 30 µM, 72 h; quantity = viability; value = not toxic
Compound = COc1c(O)c(C)cc2c1C(=O)c1c(O)cccc1C2=O; tested on = HK-2 co-cultured with HepaRG; test = MTT; setting = 16.67 µM, 48 h; scale = baseline: untreated control; quantity = viability; value = 94.9 ± 11.1%
Compound = COc1cc2ncnc(Nc3ccc(Oc4ccccc4)cc3C)c2cc1OC.O=C(O)C(F)(F)F; tested on = Calu-6 (KRAS Q61K); test = resazurin; setting = concentration not given, 72 h, with: trametinib 0 nM; quantity = viability; value = 0.951 fraction of control and 0.931 fraction of control and 0.943 fraction of control and 0.989 fraction of control and 0.954 fraction of control and 0.936 fraction of control and 0.957 fraction of control and 0.903 fraction of control
Compound = Cc1ccc(CNC(=O)Cn2cc(CSc3nc4ccccc4[nH]3)nn2)cc1; tested on = HEK293; test = MTT; setting = 62.5 ppm; quantity = viability; value = 13.8%

Excerpt of the above:
Compound = O=C1c2cccc(O)c2C(=O)c2c(O)cc(CO)cc21; tested on = HK-2 co-cultured with HepaRG; test = MTT; setting = 66.67 µM, 48 h; scale = baseline: untreated control; quantity = viability; value = 68.3 ± 8.04%
Compound = CC(C)C[C@H](NC(=O)C[C@H](O)[C@H](CC(C)C)NC(=O)[C@H](Cc1c[nH]cn1)NC(=O)CNC(=O)[C@@H](NC(=O)[C@H](C)NC(=O)[C@H](Cc1c[nH]c2ccccc12)NC(=O)[C@H](CCC(N)=O)NC(=O)[C@@H](Cc1ccccc1)NC(=O)COCCOCCNC(=O)CCC(C(=O)O)N1CCN(CC(=O)O)CCN(CC(=O)O)CC1)C(C)C)C(N)=O (stereo partly shown) [lutetium-177 labelled]; test system = female BALB/c nu/nu mice, liver; setting = intravenous, 50 pmol, 1 h; quantity = tissue uptake; value = 2.1 ± 0.5 %ID/g
